Assay results pooled from the literature.
Each line is one published result; not all experiments were run side by side. ± gives the spread as reported. ≈ marks a conversion by molar mass, not a printed value.

With `Cc1ccc(NC(=O)CSc2nc3ccccc3c(=O)n2-c2ccc(S(N)(=O)=O)cc2)cc1` the inhibition zone was 24 mm (Candida albicans; microbial growth, well diffusion; ATCC10231; 500 µg/mL, 72 h).
With `CC[C@H]1OC(=O)[C@H](C)[C@@H](O[C@H]2C[C@@](C)(OC)[C@@H](O)[C@H](C)O2)[C@H](C)[C@@H](O[C@@H]2O[C@H](C)C[C@H](N(C)C)[C@H]2O)[C@](C)(O)C[C@@H](C)CN(C)[C@H](C)[C@@H](O)[C@]1(C)O` the sensitive strains was 100% (other Haemophilus species; community-acquired pneumonia patients; Fine score 70 or more).
Under “mean instantaneous velocity”, `GYENPTYKFFEQMQN` is recorded as 0.371 µm/s (Loligo pealeii; axonal transport; peptide, squid giant axon; cargo beads).
`CC1(C)S[C@@H]2[C@H](NC(=O)[C@H](N)c3ccc(O)cc3)C(=O)N2[C@H]1C(=O)O` has a sensitive strains of 20% (other Enterobacteriaceae; community-acquired pneumonia patients; Fine score below 70).
`CCN(CC)CCNC(=O)CN1C(=O)Cc2c([nH]c3ccc(Br)cc23)-c2ccc(Cl)cc21` gave an infected macrophages of 38 to 68% (Leishmania braziliensis; intracellular amastigote infection, DAPI fluorescence microscopy; macrophages; 10 µM, 24 h, 5 µM if macrophages detach; lower = more active).
`LSTFFRLFN`: biofilm growth “no effect” (Streptococcus sanguis; OD600; peptide, ATCC 49295, 4 h single-species biofilm; 128 µg/ml, 5 min exposure, OD600 read over 5 h).
Under “viral genome equivalents”, `CC(=O)Oc1ccccc1C(=O)Nc1ncc([N+](=O)[O-])s1` is recorded as “no effect” (human norovirus; virus adsorption; human intestinal enteroids; concentration not given).
For `C[C@@H]1O[C@@H](Oc2cc(O)c3c(=O)c(O)c(-c4ccc(O)c(O)c4)oc3c2)[C@H](O)[C@H](O)[C@H]1O`, the antiviral activity was 14.9% (porcine epidemic diarrhea virus; 10 µg/mL, 1 h, 4 °C, virus pre-incubation then washing).
`CC(C)(C)NC(=O)CN1C(=O)Cc2c([nH]c3ccc(Br)cc23)-c2ccc(Cl)cc21` has an infected macrophages of 72 to 107% (Leishmania braziliensis; intracellular amastigote infection, DAPI fluorescence microscopy; macrophages; 10 µM, 24 h, 5 µM if macrophages detach; lower = more active).
`CO[C@@H]1CC[C@@]2(C)[C@@H](C1)C[C@H](O)[C@@H]1[C@@H]2CC[C@]2(C)[C@@H]([C@H](C)CCC(=O)O)CC[C@@H]12`: “complete inhibition concentration” greater than 500 µM (Clostridioides difficile; spore germination, inhibitor, OD600; NAP1; 20 min, with: 2000 µM taurocholate).
The MIC90 of `O=C(Nc1cccc(Cl)c1)Nc1nnc(SCC(O)(Cn2cncn2)c2ccc(F)cc2F)s1` (stereo not drawn) is reported as 2 to 4 µg/mL (≈ 3.82 to 7.63 µM) (Nannizzia gypsea; broth microdilution; PTCC 5070; 48 h, 37 °C).
Under “distance from plasma membrane”, `C=CC[C@@H]1/C=C(\C)C[C@H](C)C[C@H](OC)[C@H]2O[C@@](O)(C(=O)C(=O)N3CCCC[C@H]3C(=O)O[C@H](/C(C)=C/[C@@H]3CC[C@@H](O)[C@H](OC)C3)[C@H](C)[C@@H](O)CC1=O)[C@H](C)C[C@@H]2OC` is recorded as 153 ± 67 nm (Schizosaccharomyces pombe; refers to: F-actin, cytokinetic ring; 20 µg/mL, 90 min).
`CN(C)C(=O)CN1C(=O)Cc2c([nH]c3ccc(Br)cc23)-c2ccc(Cl)cc21` has an infected macrophages of 72 to 107% (Leishmania braziliensis; intracellular amastigote infection, DAPI fluorescence microscopy; macrophages; 10 µM, 24 h, 5 µM if macrophages detach; lower = more active).
`CCOC(=O)CN(C(=O)c1ccn2ncc(-c3ccc(C(=O)NC)cc3)c2c1)c1ccc(Cl)cc1` gave an EC50 of 0.066 µM (Cryptosporidium hominis; cytopathic effect; HCT-8; 48 h).
With `O=[N+]([O-])c1cn2c(n1)O[C@@H](COc1ccc(-c3ccc(F)cc3)nc1)CC2` the EC50 was 24.6 µM (Leishmania aethiopica; mouse peritoneal macrophages (CD-1), MHOM/ET/84/KH; 72 h, 34 °C, intracellular amastigotes).
With `COc1cc(CNCCCCCCCCNCc2ccc(OCc3ccccc3)c(OC)c2)ccc1OCc1ccccc1` the inhibition was 0% (Toxoplasma gondii; parasite growth; human foreskin fibroblasts, RH GFP; 1 µM).
With `CC(=O)Oc1ccccc1C(=O)O` the EC20 was greater than 800 µM (mitochondrial swelling; BALB/cByJ female mouse liver mitochondria; 30 min, with: succinate + rotenone; relative to: CaCl2 maximal swelling).
`Cn1c(-c2ccc(C(N)=O)cc2F)nnc1C(C)(C)Oc1c(F)cc(Cl)cc1F` gave a half-life median of 27.3 h (healthy young Japanese subjects, plasma; oral, 50 mg once daily, day 18, 14 days dosing).
`Cc1ccc(Nc2nc(-c3cc(C(=O)Nc4ccc(O)cc4)no3)cs2)cc1` gave an IC50 of greater than 100 µM (Mycobacterium avium; 11; 96 h).
The MIC of `Cc1ccc(S(=O)(=O)N2C(=O)CSC2c2ccc(Br)cc2)cc1` (stereo not drawn) is reported as 8 µg/mL (≈ 19.4 µM) (Lacticaseibacillus casei; broth microdilution; NCIM 2651).
For `CC[C@]1(O)C[C@@H]2CN(CCc3c([nH]c4ccccc34)[C@@](C(=O)OC)(c3cc4c(cc3OC)N(C)[C@H]3[C@@](O)(C(=O)OC)[C@H](OC(C)=O)[C@]5(CC)C=CCN6CC[C@]43[C@@H]65)C2)C1`, the EC20 was 186 µM (mitochondrial swelling; BALB/cByJ female mouse liver mitochondria; 30 min, with: succinate + rotenone; relative to: CaCl2 maximal swelling).
For `CC[C@H]1OC(=O)[C@H](C)[C@@H](O[C@H]2C[C@@](C)(OC)[C@@H](O)[C@H](C)O2)[C@H](C)[C@@H](O[C@@H]2O[C@H](C)C[C@H](N(C)C)[C@H]2O)[C@](C)(O)C[C@@H](C)C(=O)[C@H](C)[C@@H](O)[C@]1(C)O`, the sensitive strains was 0% (other Haemophilus species; community-acquired pneumonia patients; Fine score 70 or more).
For `CC1(C)S[C@@H]2[C@H](NC(=O)[C@H](N)c3ccccc3)C(=O)N2[C@H]1C(=O)O`, the MIC was 2 µg/mL (≈ 5.72 µM) (Lacticaseibacillus casei; broth microdilution; NCIM 2651).
`COc1cc2[nH]c(C)c(-c3ccc(Oc4ccc(OC(F)(F)F)cc4)cc3)c(=O)c2cc1Cl` gave an ED50 of 0.02 mg/kg/day (Plasmodium yoelii; parasitemia suppression; mouse; oral, 4 days, blood stage, PEG-400 vehicle; 50% suppression vs untreated).
With `O=C(CN1C(=O)Cc2c([nH]c3ccc(Br)cc23)-c2ccc(Cl)cc21)N1CCNCC1` the infected macrophages was 15 to 68% (Leishmania braziliensis; intracellular amastigote infection, DAPI fluorescence microscopy; macrophages; 10 µM, 24 h, 5 µM if macrophages detach; lower = more active).
`CN[C@H](CC(C)C)C(=O)N[C@H]1C(=O)N[C@@H](CC(N)=O)C(=O)N[C@H]2C(=O)N[C@H]3C(=O)N[C@H](C(=O)N[C@H](C(=O)O)c4cc(O)cc(O)c4-c4cc3ccc4O)[C@H](O)c3ccc(c(Cl)c3)Oc3cc2cc(c3O[C@@H]2O[C@H](CO)[C@@H](O)[C@H](O)[C@H]2O[C@H]2C[C@](C)(N)[C@H](O)[C@H](C)O2)Oc2ccc(cc2Cl)[C@H]1O`: “serum cytokine level” 48.2 pg/mL (Staphylococcus aureus CVCC546; ELISA, refers to: IL-10; CD-1 mouse endometritis; 10 µg/mL, 24 h).
`O=C(Nc1nnc(SCC(O)(Cn2cncn2)c2ccc(F)cc2F)s1)Nc1ccc(F)cc1F` (stereo not drawn) gave an MIC90 of 2 to 4 µg/mL (≈ 3.81 to 7.61 µM) (Nannizzia gypsea; broth microdilution; PTCC 5070; 48 h, 37 °C).
For `CNCCOC(=O)OCOc1c(-c2ccc(C(F)(F)F)cc2)c(C)nc2cc(OC)c(Cl)cc12`, the parasitaemia suppression was 96 ± 0.3% (Plasmodium berghei (GFP); mice; oral, 50 mg/kg once daily, days 3-5, day 6 post-infection).
With `NC(=O)c1ncn([C@@H]2O[C@H](CO)[C@@H](O)[C@H]2O)n1` the EC50 was 2.9 µM (Hepatitis E virus; viral replication, inhibitor, luciferase; 48 h, replicon).
The IC90 of `N=C(N)c1ccc(OCCCCCOc2ccc(C(=N)N)cc2)cc1` is reported as 6.87 µg/mL (≈ 20.2 µM) (Leishmania donovani; parasite growth; THP-1; intracellular, amastigote).
The MIC90 of `O=C(Nc1nnc(SCC(O)(Cn2cncn2)c2ccc(F)cc2F)s1)Nc1ccccc1Br` (stereo not drawn) is reported as 16 µg/mL (≈ 28.1 µM) (Nannizzia gypsea; broth microdilution; PTCC 5070; 48 h, 37 °C).
For `Cc1ccc(S(=O)(=O)N2C(=O)CSC2c2ccc([N+](=O)[O-])cc2)cc1` (stereo not drawn), the MIC was 16 µg/mL (≈ 42.3 µM) (Lacticaseibacillus casei; broth microdilution; NCIM 2651).
`CNC(=O)c1ccc(-c2cnn3ccc(C(=O)N(CCC(=O)OCC(=O)N(C)C)c4ccc(Cl)cc4)cc23)cc1` has an EC50 of greater than 20 µM (Cryptosporidium hominis; cytopathic effect; HCT-8; 48 h).
The MIC of `Cc1ccc(S(=O)(=O)N2C(=O)CSC2c2ccccc2[N+](=O)[O-])cc1` (stereo not drawn) is reported as 32 µg/mL (≈ 84.6 µM) (Lacticaseibacillus casei; broth microdilution; NCIM 2651).
The MIC90 of `O=C(Nc1ccc(Cl)cc1)Nc1nnc(SCC(O)(Cn2cncn2)c2ccc(F)cc2F)s1` (stereo not drawn) is reported as 8 µg/mL (≈ 15.3 µM) (Nannizzia gypsea; broth microdilution; PTCC 5070; 48 h, 37 °C).
With `Cc1occc(=O)c1O` the pycnidia count was 176 ± 9 (Phyllosticta citricarpa; Citrus sinensis leaf discs; 10000 µg/mL, 504 h, methanol solution).
`COc1cccc(NC(=O)Nc2nnc(SCC(O)(Cn3cncn3)c3ccc(F)cc3F)s2)c1` (stereo not drawn) has an MIC90 of 16 µg/mL (≈ 30.8 µM) (Nannizzia gypsea; broth microdilution; PTCC 5070; 48 h, 37 °C).
`RKVVTDFFKNIPQRI` gave a disease incidence of 0% (guinea pig spinal cord homogenate; peptide, (SJL/J x PL/J)F1 mouse, EAE model; intradermal, 0.1 mg peptide twice, in IFA, 10-day interval, challenge 10 days later).
`Cc1ccc(NC(=O)Nc2nnc(SCC(O)(Cn3cncn3)c3ccc(F)cc3F)s2)cc1` (stereo not drawn) gave an MIC90 of 2 to 4 µg/mL (≈ 3.97 to 7.94 µM) (Nannizzia gypsea; broth microdilution; PTCC 5070; 48 h, 37 °C).
`CC(=O)Oc1ccccc1C(=O)Nc1ncc([N+](=O)[O-])s1` has an EC50 of greater than 20 µM (Cryptosporidium hominis; cytopathic effect; HCT-8; 48 h).
With `CNC(=O)CN1C(=O)Cc2c([nH]c3ccc(Br)cc23)-c2ccc(Cl)cc21` the infected macrophages was 72 to 107% (Leishmania braziliensis; intracellular amastigote infection, DAPI fluorescence microscopy; macrophages; 10 µM, 24 h, 5 µM if macrophages detach; lower = more active).
The pycnidia count of `CCCCCCCc1cc(=O)c2c(CC(=O)OC)cc(O)cc2o1` is reported as 200 ± 6 (Phyllosticta citricarpa; Citrus sinensis leaf discs; 10000 µg/mL, 504 h, methanol solution).

For quick reference, copied from above:
`Cc1ccc(Nc2nc(-c3cc(C(=O)Nc4ccc(O)cc4)no3)cs2)cc1` gave an IC50 of greater than 100 µM (Mycobacterium avium; 11; 96 h).
For `CC1(C)S[C@@H]2[C@H](NC(=O)[C@H](N)c3ccccc3)C(=O)N2[C@H]1C(=O)O`, the MIC was 2 µg/mL (≈ 5.72 µM) (Lacticaseibacillus casei; broth microdilution; NCIM 2651).
With `O=[N+]([O-])c1cn2c(n1)O[C@@H](COc1ccc(-c3ccc(F)cc3)nc1)CC2` the EC50 was 24.6 µM (Leishmania aethiopica; mouse peritoneal macrophages (CD-1), MHOM/ET/84/KH; 72 h, 34 °C, intracellular amastigotes).
With `COc1cc(CNCCCCCCCCNCc2ccc(OCc3ccccc3)c(OC)c2)ccc1OCc1ccccc1` the inhibition was 0% (Toxoplasma gondii; parasite growth; human foreskin fibroblasts, RH GFP; 1 µM).
